Experimental data gathered from unrelated publications.
Compare with care: the assays were run in different laboratories. ± marks the error that the study gave.

The tissue uptake of O=C([O-])CN1CCN(CC(=O)[O-])CCN(CC(=O)[O-])CCN(CC(=O)[O-])CC1.[64Cu+2] is reported as 1.25 %ID/g (healthy athymic nude mice, lung; intravenous, 4 h).
NC12CNCCNCC(NCc3ccc(CNC(=O)CCCC(=O)NCc4ccc(-c5nncnn5)cc4)cc3)(CNCCNC1)CNCCNC2.[64Cu+2] gave a tissue uptake of 0.34 ± 0.18 %ID/g (athymic nude mice SW1222 xenograft, bone; 4 h post injection, 24 h accumulation interval, with: huA33-TCO pretargeting).
CN1C(=O)[C@@H](Cc2ccc(O)c(I)c2)NC(=O)CNC(=O)[C@H](Cc2ccc3ccccc3c2)NC(=O)[C@H](CCCNC(=N)N)NC(=O)[C@H]1CCCNC(=O)c1ccc(CNC(=O)CN2CCN(CC(=O)O)CCN(CC(=O)O)CCN(CC(=O)O)CC2)cc1 [lutetium-177 labelled] gave a tissue uptake of 1.3 ± 0.4 %ID/g (refers to: 177Lu radioactivity; female CB-17 SCID mice, Daudi xenograft, blood; intravenous, 0.16 nmol per mouse, 1 h).
CC(C)[C@H](NC(=O)[C@@H]1CCCN1C(=O)[C@H](CCCNC(=N)N)NC(=O)[C@H](CS)NC(=O)[C@H](Cc1c[nH]c2ccccc12)NC(=O)[C@H](CCCNC(=N)N)NC(=O)[C@@H](Cc1ccccc1)NC(=O)[C@H](Cc1c[nH]cn1)NC(=O)[C@H](CCC(=O)O)NC(=O)[C@H](CS)NC(=O)[C@H](CS)NC(=O)[C@@H]1CC(=O)N[C@@H](CCCNC(=N)N)C(=O)NCC(=O)N[C@@H](CC(=O)O)C(=O)N[C@H](Cc2ccc(O)cc2)C(=O)N1)C(N)=O [technetium-99m labelled] gave a tissue uptake of 29.3 ± 2.98 %ID/g (C57 mice B16/F1 melanoma female, kidneys; iv, 0.037 MBq, 0.5 h).
With CCCC[C@@H]1NC(=O)[C@@H](NC(=O)[C@H](CCC(=O)O)NC(=O)CNC(=O)CN2CCN(CC(=O)O)CCN(CC(=O)O)CCN(CC(=O)O)CC2)CCCCNC(=O)C[C@@H](C(N)=O)NC(=O)[C@H](C(C)C)NC(=O)[C@@H]2CCCN2C(=O)[C@H](CCCNC(=N)N)NC(=O)CNC(=O)[C@H](Cc2c[nH]c3ccccc23)NC(=O)[C@H](CCCNC(=N)N)NC(=O)[C@@H](Cc2ccccc2)NC(=O)[C@H](Cc2c[nH]cn2)NC(=O)[C@H](CCC(=O)O)NC1=O [gallium-67 labelled] the tissue uptake was 0.33 ± 0.12 %ID/g (C57 mice, B16/F10 lung metastases, skin; intravenous, 0.037 MBq/mouse, 4 h).
CCCC[C@H](NC(=O)CNC(=O)CNC(=O)CN1CCN(CC(=O)O)CCN(CC(=O)O)CC1)C(=O)N[C@H]1CC(=O)NCCCC[C@@H](C(N)=O)NC(=O)[C@H](Cc2c[nH]c3ccccc23)NC(=O)[C@H](CCCNC(=N)N)NC(=O)[C@@H](Cc2ccccc2)NC(=O)[C@H](Cc2c[nH]cn2)NC1=O [gallium-67 labelled] gave a tissue uptake of 0.59 ± 0.09 %ID/g (female C57 mice, B16/F1 melanoma, liver; intravenous, 0.037 MBq, 2 h).
O=C([O-])c1cccc(CN(CCN(Cc2cn(Cc3ccccc3)nn2)Cc2cccc(C(=O)[O-])n2)Cc2cn(Cc3ccccc3)nn2)n1.[64Cu+2] has a tissue uptake of 3.72 %ID/g (healthy athymic nude mice, spleen; intravenous, 4 h).
CCCC[C@H](NC(=O)CN1CCC(NC(=O)CN2CCN(CC(=O)O)CCN(CC(=O)O)CCN(CC(=O)O)CC2)CC1)C(=O)N[C@H]1CC(=O)NCCCC[C@@H](C(N)=O)NC(=O)[C@H](Cc2c[nH]c3ccccc23)NC(=O)[C@H](CCCNC(=N)N)NC(=O)[C@@H](Cc2ccccc2)NC(=O)[C@H](Cc2c[nH]cn2)NC1=O [gallium-68 labelled] has a tissue uptake of 0.7 ± 0.5 %ID/g (C57BL/6J mice male B16-F10 tumour, intestine; 1 h post injection, unblocked).

For quick reference, copied from above:
CCCC[C@H](NC(=O)CN1CCC(NC(=O)CN2CCN(CC(=O)O)CCN(CC(=O)O)CCN(CC(=O)O)CC2)CC1)C(=O)N[C@H]1CC(=O)NCCCC[C@@H](C(N)=O)NC(=O)[C@H](Cc2c[nH]c3ccccc23)NC(=O)[C@H](CCCNC(=N)N)NC(=O)[C@@H](Cc2ccccc2)NC(=O)[C@H](Cc2c[nH]cn2)NC1=O [gallium-68 labelled] has a tissue uptake of 0.7 ± 0.5 %ID/g (C57BL/6J mice male B16-F10 tumour, intestine; 1 h post injection, unblocked).
